Measurements collected from several papers.
Target: Testis-specific serine/threonine-protein kinase 1 (TSSK1B, Homo sapiens, UniProt Q9BXA7)
Sequence (Q9BXA7 1-367, as in one of the studies): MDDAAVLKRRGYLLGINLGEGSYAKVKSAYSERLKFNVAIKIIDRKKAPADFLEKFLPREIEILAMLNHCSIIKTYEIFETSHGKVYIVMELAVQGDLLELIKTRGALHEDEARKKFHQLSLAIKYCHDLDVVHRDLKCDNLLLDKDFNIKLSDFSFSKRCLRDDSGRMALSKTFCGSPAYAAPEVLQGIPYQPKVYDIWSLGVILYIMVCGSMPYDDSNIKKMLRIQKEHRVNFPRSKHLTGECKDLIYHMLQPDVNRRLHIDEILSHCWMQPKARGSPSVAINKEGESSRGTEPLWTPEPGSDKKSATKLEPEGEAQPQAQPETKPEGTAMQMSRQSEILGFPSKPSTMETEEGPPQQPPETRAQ

O=C1NC(=O)c2c1c1cc(F)c[n+]3c1c1c2c2cc(O)ccc2[n]1[Ru-4]312([N]=C=S)[S+]3CC[S+]1CC[S+]2CC3 (centres unmarked)  remaining activity (enzyme activity; 100 nM, human enzyme, added: 10 µM ATP; baseline: untreated): 11%
CN(/N=C/c1ccccc1C(=O)O)c1nc(-c2ccccc2Cl)cs1  inhibition (enzyme activity, inhibitor; 1 µM): -4.08%
CCOC(=O)[C@@H]1Cc2c(cc([N+](=O)[O-])cc2[N+](=O)[O-])[C@H](O)[C@]12C(=O)Nc1ccc(Br)cc12  remaining binding (binding, competition with immobilised ligand; 0.1 µM): 82%
Nc1ccc(/C=C/C(=O)N2CCc3c(oc4c(-c5ccc(F)cc5)cc(-c5ccc(C(=O)N6CCC(F)(F)CC6)cn5)cc34)C2)cn1  remaining binding (binding, competition with immobilised ligand; 1 µM): 100%
O=C(O)c1ccccc1/C=N/Nc1nc(-c2ccccc2Cl)cs1  inhibition (enzyme activity, inhibitor; 1 µM): -7.39%
C[C@H](NCc1ccc(-c2ccc(C(F)(F)F)cc2)cc1)C(N)=O  inhibition (cell-free assay, competition with immobilised ligand; 1 µM): 0%
CC(C)[C@H]1NC(=O)C[C@H]2/C=C/CCSSC[C@@H](NC1=O)C(=O)N[C@H](Cc1cccc3ccccc13)C(=O)NCC(=O)O2  inhibition (enzyme activity, inhibitor; 10 µM): 3.7%
CS(C)(=O)=Nc1ccc(-c2ccc(-c3nc4cc(O[C@@H]5CO[C@H]6[C@@H]5OC[C@H]6O)[nH]c4cc3F)cc2)cc1  inhibition (enzyme activity, inhibitor; 10 µM): 9%

Excerpt of the above:
CN(/N=C/c1ccccc1C(=O)O)c1nc(-c2ccccc2Cl)cs1  inhibition (enzyme activity, inhibitor; 1 µM): -4.08%
